# Earlier results that unrelated publications cite.
# Each line is one published result; not all experiments were run side by side. Numbers after ± are the reported error.
# Chain of UniProt P06536 (whole entry, looked up): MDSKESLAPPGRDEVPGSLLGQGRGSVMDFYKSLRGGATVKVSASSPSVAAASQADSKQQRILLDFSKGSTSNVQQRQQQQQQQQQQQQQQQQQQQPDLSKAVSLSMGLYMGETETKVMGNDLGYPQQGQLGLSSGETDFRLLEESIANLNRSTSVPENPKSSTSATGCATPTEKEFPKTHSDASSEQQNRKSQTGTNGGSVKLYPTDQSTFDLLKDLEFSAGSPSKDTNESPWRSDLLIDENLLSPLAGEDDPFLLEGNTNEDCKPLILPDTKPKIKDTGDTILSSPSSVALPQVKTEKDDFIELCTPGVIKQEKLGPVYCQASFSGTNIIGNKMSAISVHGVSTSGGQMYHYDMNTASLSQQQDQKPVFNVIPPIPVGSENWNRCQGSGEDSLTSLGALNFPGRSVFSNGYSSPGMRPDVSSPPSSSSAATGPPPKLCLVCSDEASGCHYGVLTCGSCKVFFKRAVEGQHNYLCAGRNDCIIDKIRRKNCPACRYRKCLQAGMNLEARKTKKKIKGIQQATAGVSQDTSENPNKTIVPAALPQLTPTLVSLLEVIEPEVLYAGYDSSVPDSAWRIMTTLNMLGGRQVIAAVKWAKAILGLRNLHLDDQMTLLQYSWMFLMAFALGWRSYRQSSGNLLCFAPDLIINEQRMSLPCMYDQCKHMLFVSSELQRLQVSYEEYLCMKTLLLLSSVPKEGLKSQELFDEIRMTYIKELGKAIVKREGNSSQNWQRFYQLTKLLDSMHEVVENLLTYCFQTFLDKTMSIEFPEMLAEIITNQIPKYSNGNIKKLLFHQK
SMILES,tested on,test,test system,conditions,scale,measurement,value
COc1ccccc1Oc1cccc(CN2CCC(NC(=O)C3CC(=O)Nc4ccccc43)CC2)c1 (stereo not drawn),human CCR8 Y172A mutant (ECL2),"IP accumulation, agonist",,,,EC50,0.03 µM
Cn1cncc1[C@@](N)(c1ccc(Cl)cc1)c1ccc2c(c1)c(-c1cccc(Cl)c1)cc(=O)n2C,,,"human adults, poor-risk acute leukaemia","dose not given, sample A of sample B patients",,response rate,29%
CC1(C)S[C@@H]2[C@H](NC(=O)[C@H](N)c3ccccc3)C(=O)N2[C@H]1C(=O)O,Klebsiella pneumoniae,,clinical isolate RKI-No_393/16,,,MIC,8 µg/mL
Cl.Nc1nccc(-c2c(-c3ccc(F)cc3)ncn2C2CCNCC2)n1,CSNK1G1,"kinase activity, inhibitor",,0.5 µM,,inhibition,17%
COc1ccc(-c2cc(-c3ccc(S(C)(=O)=O)cc3)cnc2N)cn1,Plasmodium falciparum,whole cell extended time,3D7,72 h,,IC50,0.19 µM
Cc1c(C#N)cccc1[C@@H](C)Nc1nnc(C)c2cnc(N3CCOCC3)cc12,SNU-C4,"ERK phosphorylation, In-Cell Western, measured: phospho-ERK",,,,IC50,0.0201 ± 0.0039 µM
Cc1[nH]c(C)c(-c2ccc(CCc3ccc(F)cc3F)cc2)c(=O)c1Cl,Plasmodium falciparum,whole cell extended time,3D7,72 h,,IC50,0.02 µM
COc1ccccc1Oc1cccc(CN2CCC3(CC2)C(=O)NCN3CCc2ccccc2)c1,human CCR8 Y113A mutant (TM3),"IP accumulation, agonist",,,,EC50,> 10 µM
CNC(C)C1CCC(N)C(OC2C(N)CC(N)C(OC3OCC(C)(O)C(NC)C3O)C2O)O1 (stereo not drawn),Pseudomonas aeruginosa,,clinical isolate RKI-No_81/10,,,MIC,> 8 µg/mL
CC(=O)O[C@H]1C(=O)[C@@]2(C)[C@H]([C@H](OC(=O)c3ccccc3)[C@]3(O)C[C@H](OC(=O)[C@H](O)[C@@H](NC(=O)c4ccccc4)c4ccccc4)C(C)=C1C3(C)C)[C@]1(OC(C)=O)CO[C@@H]1C[C@@H]2O,NCI/ADR (Pgp+ drug-resistant),cytotoxicity,,,,IC50,0.13 µM
CCN(c1cc(-c2ccc(CN3CCOCC3)cc2)cc(C(=O)NCc2c(C)cc(C)[nH]c2=O)c1C)C1CCOCC1,,,"human patients, EZH2 wild-type, relapsed or refractory follicular lymphoma",dose not given,,objective response rate,34%
CCNS(=O)(=O)c1ccc(OC)cc1C1(O)CCN(Cc2cccc(Oc3ccccc3OC)c2)CC1,human CCR8 S110H mutant (TM3),"IP accumulation, agonist",,,,EC50,> 10 µM
CC(=O)Nc1ccc(O)cc1,CYP1A2,substrate,,,,Vmax,0.432 pmol/min/pmol
CCCCCCCc1c(C)[nH]c2ccccc2c1=O,Plasmodium falciparum,whole cell extended time,3D7,72 h,,IC50,0.21 µM
Cc1cccc(C#Cc2ccccc2)n1,,"binding, radioligand binding",whole brain,,,Kd,0.0795 µM
N#Cc1ccc(N2CCN(Cc3ccc(-c4ccc(-c5nc6cc(C(F)(F)F)ccc6[nH]5)cc4)cc3)CC2)nc1,Plasmodium falciparum,whole cell extended time,3D7,72 h,,IC50,0.96 µM
Oc1ccc(-c2nc(-c3ccncc3)c(-c3ccc(F)cc3)[nH]2)cc1,CSNK1E,"kinase activity, inhibitor",,0.5 µM,,inhibition,67%
COC(=O)C1=C(C)NC(C)=C(C(=O)OC)C1c1c(-c2cc(OC)c(OC)c(OC)c2)nc2sc(Cl)cn12,,,guinea pig right atrium,"5 µM, spontaneously beating",reference: control,decrease in atrial rate,25 ± 1.5%
CNCc1cc(-c2ccccc2F)n(S(=O)(=O)c2cccnc2)c1,,,"human, plasma","10 mg multiple dose, observed clinical data",,Cmax,11.6 ng/mL
CCc1ccccc1-c1ccc(C(=O)NC[C@@H](N)C(=O)O)o1,"Glutamate receptor ionotropic, NMDA 1, with GluN2A (Grin1, Rattus norvegicus, UniProt P35439)",,,together with: saturating glutamate,,EC50,0.093 µM
C=CCC(CCC)C(=O)O (stereo not drawn),human neural embryonic cells,cell viability,,unbound medium concentration,,EC10,121 µM
CNC(=O)[C@@]12C[C@@H]1[C@@H](n1cnc3c(NCc4cccc(Cl)c4)nc(C#Cc4ccc(F)c(F)c4)nc31)[C@H](O)[C@@H]2O,β3,radioligand binding,,,,Ki,1 to 10 µM
CC(C)(C)c1ccc(O)c(CN(Cc2cc(C(C)(C)C)ccc2O)C2CCC(NC(N)=O)CC2)c1 (stereo not drawn),HMC3,,,"concentration not given, together with: thrombin",,TNF-α level,decreased
CC[C@H]1OC(=O)[C@H](C)[C@@H](O[C@H]2C[C@@](C)(OC)[C@@H](O)[C@H](C)O2)[C@H](C)[C@@H](O[C@@H]2O[C@H](C)C[C@H](N(C)C)[C@H]2O)[C@](C)(OC)C[C@@H](C)C(=O)[C@H](C)[C@@H](O)[C@]1(C)O,P-glycoprotein (ABCB1),inhibitor,liver,Simcyp library default value,,Ki,4 µM
COC(=O)C1=C(C)NC(C)=C(C(=O)OC)C1c1c(-c2cc(OC)ccc2OC)nc2sc(Cl)cn12,,decrease in atrial rate,guinea pig right atrium,,,EC50,0.98 µM
O=C(Nc1nc2ccccc2[nH]1)c1ccccc1,TWEAK-Fn14 interaction,,,"10 µM, PubChem AID 1159606",,response,79%
COc1ccccc1Oc1cccc(CN2CCC(NC(=O)C(CCN3CCCC3)c3ccccc3)CC2)c1 (stereo not drawn),human CCR8 S262A mutant (TM6),"IP accumulation, agonist",,,,EC50,0.04 µM
Nc1cccc2c1C(=O)N(C1CCC(=O)NC1=O)C2=O (stereo not drawn),,,relapsed refractory multiple myeloma patients,"dose not given, trial",,median progression-free survival,2.6 months
COC(=O)C1=C(C)NC(C)=C(C(=O)OC)C1c1c(-c2cccc(C(F)(F)F)c2)nc2sccn12,,,guinea pig left atrium,"50 µM, paced at 1 Hz",reference: control,decrease in developed tension,89 ± 3.3%
COc1ccc2c(=O)c(C3CCC(c4ccc(Cl)cc4)CC3)c(C)[nH]c2c1 (stereo not drawn),Plasmodium falciparum,whole cell extended time,3D7,72 h,,IC50,0.65 µM
COc1ccccc1Oc1cccc(CN2CCC(O)(c3ccccc3C(=O)O)CC2)c1,human CCR8 G206A mutant (TM5),"IP accumulation, agonist",,,,EC50,no effect
CCCC(C)(C)C(=O)O,human neural embryonic cells,cell viability,,unbound medium concentration,,EC10,1160 µM
CCOC(=O)c1cn(CC)c2cc(N3CCCCCC3)c(F)cc2c1=O,Plasmodium falciparum,whole cell extended time,3D7,72 h,,IC50,0.41 µM
COC(=O)C1=C(C)NC(C)=C(C(=O)OC)C1c1c(-c2cccc(OC(F)(F)F)c2)nc2sccn12,,negative inotropic effect,"guinea pig, isolated left atrium",,,EC50,0.83 µM
CCC(=O)O[C@]1(C(=O)SCF)[C@H](C)C[C@H]2[C@@H]3C[C@H](F)C4=CC(=O)C=C[C@]4(C)[C@@]3(F)[C@@H](O)C[C@@]21C,"Glucocorticoid receptor (Nr3c1, Rattus norvegicus, UniProt P06536)",,"rat, spleen","intravenous, 90 nmol/kg, 2 (unit not given)",,receptor occupancy,67.3%
Nc1cc(C(F)(F)F)c(-c2nc(N3CCOCC3)nc(N3CCOCC3)n2)cn1,Jurkat E6-1,,,,,GI50,0.72 µM
COc1ccc(C#Cc2ccc(-c3c(C)[nH]c(C)c(Cl)c3=O)cc2)cc1,Plasmodium falciparum,whole cell extended time,3D7,72 h,,IC50,0.07 µM
CCc1cn2c(C3C(C(=O)OC)=C(C)NC(C)=C3C(=O)OC)c(-c3cc(OC)ccc3OC)nc2s1,,decrease in atrial rate,guinea pig right atrium,,,EC50,1.59 µM
Cc1cc(=O)c(-c2ccc(OCc3ccc(OC(F)(F)F)cc3)cc2)c(C)[nH]1,Plasmodium falciparum,whole cell extended time,3D7,72 h,,IC50,0.74 µM
Fc1ncccc1-c1ccc2c(n1)[nH]c1ccncc12,,"binding, Scatchard analysis, measured: tau aggregates",corticobasal degeneration brain tissue,,,Kd,0.0094 µM
COC(=O)C1=C(C)NC(C)=C(C(=O)OC)C1c1c(-c2ccccc2OC(F)(F)F)nc2sccn12,,negative inotropic effect,"guinea pig, isolated left atrium",,,EC50,0.075 µM
C[C@H]1COCCN1c1nc(-c2cnc(N)cc2C(F)F)nc(N2CCOCC2)n1,A704,,,,,GI50,0.361 µM

# Repeated from above:
SMILES,tested on,test,test system,conditions,scale,measurement,value
CNCc1cc(-c2ccccc2F)n(S(=O)(=O)c2cccnc2)c1,,,"human, plasma","10 mg multiple dose, observed clinical data",,Cmax,11.6 ng/mL
CCc1ccccc1-c1ccc(C(=O)NC[C@@H](N)C(=O)O)o1,"Glutamate receptor ionotropic, NMDA 1, with GluN2A (Grin1, Rattus norvegicus, UniProt P35439)",,,together with: saturating glutamate,,EC50,0.093 µM
C=CCC(CCC)C(=O)O (stereo not drawn),human neural embryonic cells,cell viability,,unbound medium concentration,,EC10,121 µM
CNC(=O)[C@@]12C[C@@H]1[C@@H](n1cnc3c(NCc4cccc(Cl)c4)nc(C#Cc4ccc(F)c(F)c4)nc31)[C@H](O)[C@@H]2O,β3,radioligand binding,,,,Ki,1 to 10 µM
CC(C)(C)c1ccc(O)c(CN(Cc2cc(C(C)(C)C)ccc2O)C2CCC(NC(N)=O)CC2)c1 (stereo not drawn),HMC3,,,"concentration not given, together with: thrombin",,TNF-α level,decreased
